Measured values collected from several papers.
Lines come from different studies, so protocols differ. Numbers after ± are the reported error.

| Molecule | assay | system | conditions | how to read | measurement | value |
| --- | --- | --- | --- | --- | --- | --- |
| CC[C@H](C)[C@H](NC(=O)[C@@H](N)CCCNC(=N)N)C(=O)N[C@H](C(=O)N1CCC[C@H]1C(=O)N[C@@H](C)C(N)=O)C(C)C |  | healthy humans, both sexes, plasma | intravenous infusion, 6.5 mg/kg daily, day 7, multiple doses, 4 min infusion |  | MRT | 3 min |
| CC(=O)N[C@H](CCCCNC(=O)C(C)F)C(=O)N[C@@H](CS)C(=O)N[C@@H](CS)C(=O)N[C@@H](CCC(=O)O)C(=O)N[C@@H](Cc1c[nH]cn1)C(=O)N[C@H](Cc1ccccc1)C(=O)N[C@@H](CCCNC(=N)N)C(=O)N[C@@H](Cc1c[nH]c2ccccc12)C(=O)N[C@@H](CS)C(=O)N[C@@H](CCCNC(=N)N)C(=O)N1CCC[C@H]1C(=O)N[C@H](C(N)=O)C(C)C (stereo partly drawn) [fluorine-18 labelled] |  | male C57BL/6 mice, B16-F10 tumour | intravenous, 2 h | baseline: tumour over blood | tumour to tissue uptake ratio | 3.8 ± 0.89 |
| amyloid beta-42 Met35-sulfone | electron microscopy | sodium phosphate buffer | 10 µM, pH 7.4, 25 °C, agitation 200 rpm |  | time to fibril formation | 24 h |
| Clc1cc2c(cc1Cl)Oc1cc(Cl)c(Cl)cc1O2 |  | zebrafish (Danio rerio) embryo, whole embryo, dry weight | waterborne, 10 ppb, 24 hpf |  | internal concentration | 0.96 ppt |
| Cc1nc(Nc2ncc(C(=O)Nc3c(C)cccc3Cl)s2)cc(N2CCN(CCO)CC2)n1 |  | male C57BL/6 mouse wild type, plasma | oral, 10 mg/kg |  | terminal half-life | 4.05 ± 2.44 h |
| eremomycin pyrrolidide | pseudoallergic reaction | male CBA mouse | intravenous, maximum tolerated dose, with: concanavalin A | baseline: control group | inflammation reaction index | 5.5% |
| O[C@H]1CCCN[C@@H]1CCCn1cnc2c(Cl)c(Cl)ccc21 |  | healthy volunteers, urine | oral, 100 mg solution single, geometric mean |  | renal clearance (0-72 h) | 431 mL/min |
| C[C@H]1NC(C)(C)CO[C@]1(O)c1cccc(Cl)c1 |  | dually perfused human placental lobule | maternal-to-fetal transfer, with: maternal concentration 470 ng/mL |  | time to appearance in fetal circuit | ≤ 5 min |
| CCCCCCCC[N+](C)(C)C | substrate depletion | human liver microsomes | 0.5 µM, 0 to 3 h, 37 °C, with: NADPH |  | intrinsic clearance | 0.144 mL/h/mg protein |
| Cc1ccc(C(=O)Nc2ccc(S(=O)(=O)O)c3cc(S(=O)(=O)O)cc(S(=O)(=O)O)c23)cc1NC(=O)c1cccc(NC(=O)Nc2cccc(C(=O)Nc3cc(C(=O)Nc4ccc(S(=O)(=O)O)c5cc(S(=O)(=O)O)cc(S(=O)(=O)O)c45)ccc3C)c2)c1 |  | zebrafish embryos | immersion, 72 h |  | maximum tolerated concentration | 200 µM |
| O=C(NCCCCCn1ccc2ccc(F)cc21)Oc1ccc(C(=O)O)cc1 |  | porcine liver S9 fraction | 20 µM, 30 min, with: BNPP 1 mM |  | inhibition of degradation | 54% |
| CCCCCOc1ccc(-c2ccc(-c3ccc(C(=O)N[C@H]4C[C@@H](O)[C@@H](O)NC(=O)[C@@H]5[C@@H](O)[C@@H](C)CN5C(=O)[C@H]([C@@H](C)O)NC(=O)[C@H]([C@H](O)[C@@H](O)c5ccc(O)cc5)NC(=O)[C@@H]5C[C@@H](O)CN5C(=O)[C@H]([C@@H](C)O)NC4=O)cc3)cc2)cc1 |  | adult patients | iv, dose not given, 2, during treatment |  | patients with gastrointestinal adverse events | 18.2% |
